Measurements of several laboratories.
Lines come from different studies, so protocols differ. Numbers after ± are the reported error.
tmk: Thymidylate kinase (tmk, Mycobacterium tuberculosis, UniProt P9WKE1)
Chain of UniProt P9WKE1 (whole entry, looked up): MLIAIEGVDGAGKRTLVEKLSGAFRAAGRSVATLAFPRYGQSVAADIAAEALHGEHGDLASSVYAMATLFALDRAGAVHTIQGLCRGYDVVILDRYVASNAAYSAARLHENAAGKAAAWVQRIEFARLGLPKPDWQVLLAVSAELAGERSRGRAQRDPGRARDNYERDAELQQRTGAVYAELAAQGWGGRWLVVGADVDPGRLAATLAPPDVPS
Chain of UniProt P21554 (whole entry, unmodified, looked up): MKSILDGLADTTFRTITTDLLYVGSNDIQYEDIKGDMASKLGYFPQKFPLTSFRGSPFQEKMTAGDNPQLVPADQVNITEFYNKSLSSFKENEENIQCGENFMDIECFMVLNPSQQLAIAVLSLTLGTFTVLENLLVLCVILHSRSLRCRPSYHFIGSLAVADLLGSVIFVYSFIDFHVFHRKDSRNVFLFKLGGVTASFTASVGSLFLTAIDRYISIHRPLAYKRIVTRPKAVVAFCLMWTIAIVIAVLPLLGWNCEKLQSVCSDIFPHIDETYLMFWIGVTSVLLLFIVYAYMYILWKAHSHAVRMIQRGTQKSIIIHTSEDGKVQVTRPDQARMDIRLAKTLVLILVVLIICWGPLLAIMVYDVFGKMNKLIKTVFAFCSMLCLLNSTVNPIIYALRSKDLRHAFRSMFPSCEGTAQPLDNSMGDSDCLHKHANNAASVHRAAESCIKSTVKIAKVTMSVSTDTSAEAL
Chain of UniProt P22001 (whole entry, looked up): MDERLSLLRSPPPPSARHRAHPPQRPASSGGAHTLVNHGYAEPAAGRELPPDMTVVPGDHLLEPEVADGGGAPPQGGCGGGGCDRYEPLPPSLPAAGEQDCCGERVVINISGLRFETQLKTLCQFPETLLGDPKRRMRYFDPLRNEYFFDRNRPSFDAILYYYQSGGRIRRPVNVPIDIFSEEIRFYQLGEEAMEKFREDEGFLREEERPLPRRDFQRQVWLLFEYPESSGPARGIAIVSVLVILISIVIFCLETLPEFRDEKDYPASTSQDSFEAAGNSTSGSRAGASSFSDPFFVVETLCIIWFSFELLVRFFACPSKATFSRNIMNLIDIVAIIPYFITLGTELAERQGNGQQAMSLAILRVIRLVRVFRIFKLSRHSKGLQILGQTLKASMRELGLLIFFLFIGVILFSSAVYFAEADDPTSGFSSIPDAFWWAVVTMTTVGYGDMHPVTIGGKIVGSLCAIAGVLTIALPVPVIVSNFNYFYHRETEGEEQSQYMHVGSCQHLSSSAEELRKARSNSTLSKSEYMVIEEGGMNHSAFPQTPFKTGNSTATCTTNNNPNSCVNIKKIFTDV
Chain of UniProt Q8N4C8 (whole entry, looked up): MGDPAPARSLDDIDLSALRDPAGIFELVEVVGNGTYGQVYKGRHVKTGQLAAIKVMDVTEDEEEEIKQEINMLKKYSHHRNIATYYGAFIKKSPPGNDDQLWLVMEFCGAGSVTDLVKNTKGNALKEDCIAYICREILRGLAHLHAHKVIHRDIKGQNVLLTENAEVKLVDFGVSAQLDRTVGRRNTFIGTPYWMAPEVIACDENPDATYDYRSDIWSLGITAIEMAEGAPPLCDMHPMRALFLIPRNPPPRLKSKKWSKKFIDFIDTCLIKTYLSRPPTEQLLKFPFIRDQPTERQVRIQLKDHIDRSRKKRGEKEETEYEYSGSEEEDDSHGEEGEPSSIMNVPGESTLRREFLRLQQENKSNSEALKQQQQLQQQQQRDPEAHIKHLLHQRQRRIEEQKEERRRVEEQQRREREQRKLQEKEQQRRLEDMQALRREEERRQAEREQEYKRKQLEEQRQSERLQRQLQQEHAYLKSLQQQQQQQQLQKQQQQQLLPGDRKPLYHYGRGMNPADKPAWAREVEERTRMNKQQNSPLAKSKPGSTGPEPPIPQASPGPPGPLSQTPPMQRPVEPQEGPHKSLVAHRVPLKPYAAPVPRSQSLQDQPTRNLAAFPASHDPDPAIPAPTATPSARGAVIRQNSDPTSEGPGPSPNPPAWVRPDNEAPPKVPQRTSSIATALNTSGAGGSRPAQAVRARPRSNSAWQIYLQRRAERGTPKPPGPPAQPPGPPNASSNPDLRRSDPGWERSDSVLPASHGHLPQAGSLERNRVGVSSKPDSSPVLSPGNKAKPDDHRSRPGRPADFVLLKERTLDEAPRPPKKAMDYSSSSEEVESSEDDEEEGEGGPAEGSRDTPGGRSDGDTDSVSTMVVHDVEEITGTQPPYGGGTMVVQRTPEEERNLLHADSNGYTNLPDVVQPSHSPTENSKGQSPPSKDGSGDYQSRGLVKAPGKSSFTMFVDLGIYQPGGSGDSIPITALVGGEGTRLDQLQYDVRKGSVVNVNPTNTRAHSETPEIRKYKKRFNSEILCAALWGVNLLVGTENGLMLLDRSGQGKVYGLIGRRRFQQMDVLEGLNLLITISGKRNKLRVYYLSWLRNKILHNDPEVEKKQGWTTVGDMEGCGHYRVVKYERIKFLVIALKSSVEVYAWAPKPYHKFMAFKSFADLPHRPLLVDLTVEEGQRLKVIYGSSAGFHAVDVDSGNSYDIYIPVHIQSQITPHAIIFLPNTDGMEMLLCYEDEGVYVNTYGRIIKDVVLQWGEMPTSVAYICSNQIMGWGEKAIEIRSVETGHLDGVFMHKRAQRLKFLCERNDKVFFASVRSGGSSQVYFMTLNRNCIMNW
Chain of UniProt P45974 (whole entry, looked up): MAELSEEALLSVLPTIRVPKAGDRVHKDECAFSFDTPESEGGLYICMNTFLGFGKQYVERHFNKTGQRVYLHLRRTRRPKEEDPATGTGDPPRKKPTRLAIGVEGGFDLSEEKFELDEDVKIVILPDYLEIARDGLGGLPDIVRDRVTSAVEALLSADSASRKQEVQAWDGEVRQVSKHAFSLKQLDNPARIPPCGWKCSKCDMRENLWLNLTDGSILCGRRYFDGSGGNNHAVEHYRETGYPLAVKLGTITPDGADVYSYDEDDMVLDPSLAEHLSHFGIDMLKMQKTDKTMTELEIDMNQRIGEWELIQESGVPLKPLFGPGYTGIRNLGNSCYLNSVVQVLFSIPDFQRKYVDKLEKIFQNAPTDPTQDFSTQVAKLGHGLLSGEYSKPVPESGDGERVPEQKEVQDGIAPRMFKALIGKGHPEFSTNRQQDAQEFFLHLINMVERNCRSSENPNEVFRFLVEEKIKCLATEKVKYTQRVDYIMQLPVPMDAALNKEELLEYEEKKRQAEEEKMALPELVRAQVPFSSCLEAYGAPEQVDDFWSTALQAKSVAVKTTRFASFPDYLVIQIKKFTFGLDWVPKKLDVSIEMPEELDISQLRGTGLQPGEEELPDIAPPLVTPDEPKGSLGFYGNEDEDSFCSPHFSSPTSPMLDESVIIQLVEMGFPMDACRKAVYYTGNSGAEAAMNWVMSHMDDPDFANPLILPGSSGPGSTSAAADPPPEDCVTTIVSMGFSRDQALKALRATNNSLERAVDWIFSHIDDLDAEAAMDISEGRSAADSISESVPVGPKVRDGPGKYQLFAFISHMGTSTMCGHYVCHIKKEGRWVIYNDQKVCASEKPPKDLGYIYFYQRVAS
Chain of UniProt P09619 (whole entry, looked up): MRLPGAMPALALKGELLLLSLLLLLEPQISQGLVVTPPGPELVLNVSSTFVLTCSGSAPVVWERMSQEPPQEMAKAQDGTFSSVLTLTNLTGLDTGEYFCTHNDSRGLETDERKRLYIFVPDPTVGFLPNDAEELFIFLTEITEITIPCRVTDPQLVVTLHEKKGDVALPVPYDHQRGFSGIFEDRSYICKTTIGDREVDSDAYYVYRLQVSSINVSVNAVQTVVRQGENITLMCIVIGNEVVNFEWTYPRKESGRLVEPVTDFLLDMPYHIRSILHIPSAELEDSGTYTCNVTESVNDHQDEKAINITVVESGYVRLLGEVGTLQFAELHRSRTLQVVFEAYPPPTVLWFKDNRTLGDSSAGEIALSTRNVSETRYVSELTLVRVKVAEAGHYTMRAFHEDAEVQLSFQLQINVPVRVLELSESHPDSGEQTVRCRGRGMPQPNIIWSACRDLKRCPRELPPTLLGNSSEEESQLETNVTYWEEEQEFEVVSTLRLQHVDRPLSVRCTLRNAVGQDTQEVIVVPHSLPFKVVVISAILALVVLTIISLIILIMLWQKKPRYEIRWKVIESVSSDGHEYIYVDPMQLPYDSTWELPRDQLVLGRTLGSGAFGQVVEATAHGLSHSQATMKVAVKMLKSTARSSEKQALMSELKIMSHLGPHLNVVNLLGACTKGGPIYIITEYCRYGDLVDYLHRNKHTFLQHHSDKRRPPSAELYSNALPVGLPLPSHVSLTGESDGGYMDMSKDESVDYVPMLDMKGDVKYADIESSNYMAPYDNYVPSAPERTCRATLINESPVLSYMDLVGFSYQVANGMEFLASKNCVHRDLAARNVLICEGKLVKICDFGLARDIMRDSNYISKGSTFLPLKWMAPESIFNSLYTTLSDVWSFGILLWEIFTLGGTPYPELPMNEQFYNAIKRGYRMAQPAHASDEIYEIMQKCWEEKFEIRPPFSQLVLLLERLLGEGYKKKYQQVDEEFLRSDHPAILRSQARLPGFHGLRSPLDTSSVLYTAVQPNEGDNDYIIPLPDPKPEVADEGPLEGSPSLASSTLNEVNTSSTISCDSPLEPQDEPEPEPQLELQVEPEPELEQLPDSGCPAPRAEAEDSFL
Chain of UniProt Q5XJY4 (whole entry, looked up): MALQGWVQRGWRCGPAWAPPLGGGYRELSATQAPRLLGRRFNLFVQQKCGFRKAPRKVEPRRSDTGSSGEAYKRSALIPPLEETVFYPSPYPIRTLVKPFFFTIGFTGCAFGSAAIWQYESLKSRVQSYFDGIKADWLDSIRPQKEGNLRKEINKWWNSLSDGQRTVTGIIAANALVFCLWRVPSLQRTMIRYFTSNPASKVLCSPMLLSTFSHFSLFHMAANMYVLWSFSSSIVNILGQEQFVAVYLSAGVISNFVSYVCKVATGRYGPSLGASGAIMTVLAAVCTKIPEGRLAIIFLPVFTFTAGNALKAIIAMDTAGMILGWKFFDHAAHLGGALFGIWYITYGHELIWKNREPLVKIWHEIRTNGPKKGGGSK

Cc1cn(C2CC(O)C(COP(=O)(O)O)O2)c(=O)[nH]c1=O (stereo not shown) — inhibition (tmk; enzyme activity, inhibitor, absorbance; 0.1 µg/mL): 62.5%
CC(C)(C)C(=O)OCOP(=O)(OCOC(=O)C(C)(C)C)C1CCCN(O)C1=O (stereo not shown) — log LC50 (SF-268): > -4 log M
Nc1ncnc2c1c(-c1ccc(Oc3ccccc3)cc1)nn2C1CCCC1 — bound fraction (SRC (Gallus gallus, UniProt P00523); concentration not given): 85%
CCCCCn1cc(C(=O)c2ccc3c(c2)CC(C)(C)C3)c2ccccc21 — Emax (CNR1 (Homo sapiens, UniProt P21554, I267L/L193I/L359V); cAMP inhibition, agonist, CAMYEL BRET biosensor; added: forskolin 10 µM; baseline: reference agonist at wild type): 100 ± 3.3%
O=C(NC1CCN(c2ncnc3[nH]cnc23)CC1)c1cccc(NS(=O)(=O)c2ccc(C(F)(F)F)cc2)c1 — inhibition (Replicase polyprotein 1ab, nsp14 (rep, Human coronavirus 229E, UniProt P0C6X1); enzyme activity; 12.5 µM): 52.1%
Cc1sc2c(c1C)C(c1ccc(Cl)cc1)=N[C@@H](CC(=O)OC(C)(C)C)c1nnc(C)n1-2 — binding stoichiometry (Bromodomain testis-specific protein, BD1 (BRDT, Homo sapiens, UniProt Q58F21); isothermal titration calorimetry; concentration not given, 15 °C, reverse titration): 1.06 ± 0.002
CCOC(=O)C1=C(C)NC(=NN=C2C(=O)Nc3ccccc32)NC1c1ccc(F)cc1 (stereo not shown) — inhibition (tmk; enzyme activity, inhibitor, absorbance; 10 µg/mL): 81.2%
N#Cc1cn([C@@H]2O[C@H](CSCC[C@H](N)C(=O)O)[C@@H](O)[C@H]2O)c2ncnc(N)c12 — Hill slope (Replicase polyprotein 1ab, nsp10-nsp16 complex (rep, Human coronavirus 229E, UniProt P0C6X1)): -1.1
CC(C)CC(O)(CC(C)C)c1cn(C(=O)N2CCCC2)nn1 — ratio of ratios (Presenilin-associated rhomboid-like protein, mitochondrial (Parl, Mus musculus, UniProt Q5XJY4); enzyme activity, inhibitor, item: Parl; mouse, brain; i.p., 0.8 mg/kg, 4 h, protein level; baseline: vehicle): 0.67
CC(C)CC(C(=O)N1CC2(CC1C#N)C(=O)Nc1ccccc12)N(C)C(=O)c1cc2c(F)cc(F)c(F)c2[nH]1 (stereo not shown) — remaining activity (Replicase polyprotein 1ab, 3C-like protease (rep, Human coronavirus 229E, UniProt P0C6X1); enzyme activity; 0.01001 µM): 1.6%
CS(C)(=O)=Nc1ccc(-c2ccc(-c3nc4cc(O[C@@H]5CO[C@H]6[C@@H]5OC[C@H]6O)[nH]c4cc3F)cc2)cc1 — inhibition (MARK2 (Homo sapiens, UniProt Q7KZI7); enzyme activity, inhibitor; 10 µM): 5%
CC(C)(C)n1nc(-c2ccc(Cl)cc2)c2c(N)ncnc21 — bound fraction (HCK (Homo sapiens, UniProt P08631, Y411F); concentration not given): 86%
CCOC(=O)C1=C(C)NC(=NN=C2C(=O)Nc3ccc(C)cc32)NC1c1ccc(F)cc1 (stereo not shown) — inhibition (tmk; enzyme activity, inhibitor, absorbance; 0.01 µg/mL): 38.3%
O=C1NC(=O)c2c1c1cc(F)c[n+]3c1c1c2c2cc(O)ccc2[n]1[Ru-4]312([N]=C=S)[S+]3CC[S+]1CC[S+]2CC3 (stereo not shown) — remaining activity (MINK1 (Homo sapiens, UniProt Q8N4C8); enzyme activity; 100 nM, human enzyme, added: 10 µM ATP; baseline: untreated): 51%
CN(C)[C@H]1C[C@@]23CC[C@@]4(O2)C(=CC[C@]2(C)[C@@H](c5ccc6ccncc6c5)CC[C@H]24)C=C3[C@@H](O)[C@@H]1O — inhibition (SNRK (Homo sapiens, UniProt Q9NRH2); ATP probe labelling, inhibitor, KiNativ profiling; 1 µM): 1.9%
CC[C@H](C)[C@@H]1NC(=O)[C@H](CC(=O)O)NC(=O)[C@H]([C@@H](C)O)NC(=O)[C@@H]2CSSC[C@@H]3NC(=O)[C@H](CC(C)C)NC(=O)[C@H](CC(N)=O)NC(=O)[C@H](CC(C)C)NC(=O)[C@H](CCCNC(=N)N)NC(=O)[C@H](Cc4ccc(O)cc4)NC(=O)[C@H](CC(N)=O)NC(=O)[C@H](CCSC)NC(=O)[C@H](CO)NC(=O)[C@H]([C@@H](C)O)NC(=O)[C@H](CCCNC(=N)N)NC(=O)[C@H](CSSC[C@H](NC(=O)[C@H]([C@@H](C)O)NC(=O)[C@H](CCCCN)NC(=O)[C@H](CCCNC(=N)N)NC3=O)C(=O)NCC(=O)N[C@@H](CO)C(=O)N[C@H](C(=O)O)CSSC[C@H](NC(=O)[C@@H](NC(=O)[C@@H](N)CCCNC(=N)N)[C@@H](C)O)C(=O)N[C@@H](CCCCN)C(=O)N[C@@H](CC(=O)O)C(=O)N[C@@H](CC(C)C)C(=O)N[C@@H]([C@@H](C)CC)C(=O)N3CCC[C@H]3C(=O)N[C@@H](C(C)C)C(=O)N[C@@H](CO)C(=O)N[C@@H](CCC(=O)O)C(=O)N2)NC(=O)[C@H](CCCNC(=N)N)NC1=O — koff (KCNA3 (Homo sapiens, UniProt P22001); blocker, two-electrode voltage clamp; Xenopus oocytes; membrane potential 0 mV): 0.67 ± 0.08 s⁻¹
COc1ccc(CC2C(=O)NC(=O)N(c3cccc(Cl)c3)C2=O)cc1 (stereo not shown) — inhibition (USP5 (Homo sapiens, UniProt P45974); enzyme activity, inhibitor; 17 µM): 66%
Nc1ccc(/C=C/C(=O)N2CCc3c(oc4c(-c5ccc(F)cc5)cc(-c5ccc(C(=O)N6CCC(F)(F)CC6)cn5)cc34)C2)cn1 — remaining binding (PDGFRB (Homo sapiens, UniProt P09619); binding, competition with immobilised ligand; 1 µM): 98%
CCCCCn1cc(C(=O)c2ccc3ccccc3c2)c2ccccc21 — Emax (CNR1 (Homo sapiens, UniProt P21554, F170A); Gαi1 engagement, agonist, BRET; baseline: reference agonist at wild-type CB1): 26.9 ± 5.1%
O=C1NC2(CC2)COc2ncc(F)cc2[C@H]2COCCN2c2ccn3ncc1c3n2 — serum total bilirubin (Sprague-Dawley rat, male, serum; oral, 10 mg/kg/day, end of recovery, 4-week subacute toxicity): 1.4 ± 0.3 µmol/L
CC(C)[C@H]1NC(=O)C[C@H]2/C=C/CCSSC[C@@H](NC1=O)C(=O)N[C@H](Cc1cccc3ccccc13)C(=O)NCC(=O)O2 — inhibition (HIPK1 (Homo sapiens, UniProt Q86Z02); enzyme activity, inhibitor; 10 µM): 0.6%
Cc1ccc2c(C(C[N+](=O)[O-])c3cccs3)c(-c3ccccc3)[nH]c2c1 (stereo not shown) — Emax (CNR1 (Homo sapiens, UniProt P21554, I245F); Gαi1-γ2 dissociation, BRET): 112 ± 7.05%
CCCCCn1cc(C(=O)c2cccc3ccccc23)c2ccccc21 — bias factor (ΔΔlog(Emax/EC50)) (CNR1 (Homo sapiens, UniProt P21554); agonist, BRET; baseline: Gαi1 over β-arrestin 2, reference agonist): 0.32
COc1ccccc1-c1n[nH]c2nc(NC3CCN(C(=O)Cc4ccc(F)cc4F)CC3)ncc12 — relative abundance (bead binding, competition bead pull-down, item: LMJF.30.2550; Leishmania donovani extract; 10 µM; baseline: vehicle): 0.86
COc1ccccc1C(C[N+](=O)[O-])c1c(-c2ccccc2)[nH]c2ccccc12 (stereo not shown) — Emax (CNR1 (Homo sapiens, UniProt P21554, I245A); Gαi1-γ2 dissociation, BRET): 57 ± 5.08%

Some of these lines once more:
Nc1ccc(/C=C/C(=O)N2CCc3c(oc4c(-c5ccc(F)cc5)cc(-c5ccc(C(=O)N6CCC(F)(F)CC6)cn5)cc34)C2)cn1 — remaining binding (PDGFRB (Homo sapiens, UniProt P09619); binding, competition with immobilised ligand; 1 µM): 98%
CCOC(=O)C1=C(C)NC(=NN=C2C(=O)Nc3ccccc32)NC1c1ccc(F)cc1 (stereo not shown) — inhibition (tmk; enzyme activity, inhibitor, absorbance; 10 µg/mL): 81.2%
CC(C)(C)C(=O)OCOP(=O)(OCOC(=O)C(C)(C)C)C1CCCN(O)C1=O (stereo not shown) — log LC50 (SF-268): > -4 log M
